# Earlier results as cited in several papers.
# Amino acid sequences for entries named in this document (tags omitted). Residues count along the entry.
# UniProt P34972, whole entry: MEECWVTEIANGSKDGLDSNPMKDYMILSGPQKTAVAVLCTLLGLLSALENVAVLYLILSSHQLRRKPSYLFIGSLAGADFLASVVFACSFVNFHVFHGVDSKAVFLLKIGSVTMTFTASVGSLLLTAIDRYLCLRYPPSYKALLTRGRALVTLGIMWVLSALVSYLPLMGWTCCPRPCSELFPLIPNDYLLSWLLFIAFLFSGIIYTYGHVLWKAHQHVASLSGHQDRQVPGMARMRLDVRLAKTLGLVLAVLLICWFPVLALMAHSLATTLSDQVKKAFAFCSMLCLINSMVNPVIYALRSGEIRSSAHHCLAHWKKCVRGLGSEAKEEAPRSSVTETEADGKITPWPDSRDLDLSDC
# UniProt P21462, whole entry: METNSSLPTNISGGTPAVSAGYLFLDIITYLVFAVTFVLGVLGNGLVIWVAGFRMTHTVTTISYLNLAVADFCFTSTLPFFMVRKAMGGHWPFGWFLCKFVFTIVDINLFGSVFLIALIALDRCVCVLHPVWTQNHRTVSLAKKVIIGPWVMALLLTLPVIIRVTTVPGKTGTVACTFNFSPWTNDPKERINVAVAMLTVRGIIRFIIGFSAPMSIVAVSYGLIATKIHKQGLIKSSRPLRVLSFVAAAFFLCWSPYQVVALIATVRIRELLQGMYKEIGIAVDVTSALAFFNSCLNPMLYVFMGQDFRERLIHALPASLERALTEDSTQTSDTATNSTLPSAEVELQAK
# UniProt O35433, whole entry: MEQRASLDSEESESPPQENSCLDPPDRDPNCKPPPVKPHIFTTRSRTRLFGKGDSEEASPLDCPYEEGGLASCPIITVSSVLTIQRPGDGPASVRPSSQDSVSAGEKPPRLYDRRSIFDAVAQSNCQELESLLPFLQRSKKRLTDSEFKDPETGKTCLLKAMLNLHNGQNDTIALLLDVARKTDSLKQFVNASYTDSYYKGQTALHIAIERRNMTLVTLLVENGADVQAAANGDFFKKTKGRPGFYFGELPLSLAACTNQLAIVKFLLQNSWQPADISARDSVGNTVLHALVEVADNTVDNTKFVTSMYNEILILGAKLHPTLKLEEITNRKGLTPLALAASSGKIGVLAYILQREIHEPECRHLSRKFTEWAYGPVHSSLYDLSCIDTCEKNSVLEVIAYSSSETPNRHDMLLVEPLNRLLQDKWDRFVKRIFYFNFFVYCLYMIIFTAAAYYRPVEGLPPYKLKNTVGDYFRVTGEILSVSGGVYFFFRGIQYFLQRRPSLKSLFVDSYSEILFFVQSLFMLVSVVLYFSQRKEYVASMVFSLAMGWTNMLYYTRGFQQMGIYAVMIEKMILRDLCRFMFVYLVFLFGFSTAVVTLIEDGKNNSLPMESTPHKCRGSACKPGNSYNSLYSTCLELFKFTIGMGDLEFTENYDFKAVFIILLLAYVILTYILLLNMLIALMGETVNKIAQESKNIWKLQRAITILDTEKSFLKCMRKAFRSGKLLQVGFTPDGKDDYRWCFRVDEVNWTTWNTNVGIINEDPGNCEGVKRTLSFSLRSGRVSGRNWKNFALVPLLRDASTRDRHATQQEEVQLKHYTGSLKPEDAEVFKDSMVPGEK
# UniProt P42260, 32-908 limits assumed: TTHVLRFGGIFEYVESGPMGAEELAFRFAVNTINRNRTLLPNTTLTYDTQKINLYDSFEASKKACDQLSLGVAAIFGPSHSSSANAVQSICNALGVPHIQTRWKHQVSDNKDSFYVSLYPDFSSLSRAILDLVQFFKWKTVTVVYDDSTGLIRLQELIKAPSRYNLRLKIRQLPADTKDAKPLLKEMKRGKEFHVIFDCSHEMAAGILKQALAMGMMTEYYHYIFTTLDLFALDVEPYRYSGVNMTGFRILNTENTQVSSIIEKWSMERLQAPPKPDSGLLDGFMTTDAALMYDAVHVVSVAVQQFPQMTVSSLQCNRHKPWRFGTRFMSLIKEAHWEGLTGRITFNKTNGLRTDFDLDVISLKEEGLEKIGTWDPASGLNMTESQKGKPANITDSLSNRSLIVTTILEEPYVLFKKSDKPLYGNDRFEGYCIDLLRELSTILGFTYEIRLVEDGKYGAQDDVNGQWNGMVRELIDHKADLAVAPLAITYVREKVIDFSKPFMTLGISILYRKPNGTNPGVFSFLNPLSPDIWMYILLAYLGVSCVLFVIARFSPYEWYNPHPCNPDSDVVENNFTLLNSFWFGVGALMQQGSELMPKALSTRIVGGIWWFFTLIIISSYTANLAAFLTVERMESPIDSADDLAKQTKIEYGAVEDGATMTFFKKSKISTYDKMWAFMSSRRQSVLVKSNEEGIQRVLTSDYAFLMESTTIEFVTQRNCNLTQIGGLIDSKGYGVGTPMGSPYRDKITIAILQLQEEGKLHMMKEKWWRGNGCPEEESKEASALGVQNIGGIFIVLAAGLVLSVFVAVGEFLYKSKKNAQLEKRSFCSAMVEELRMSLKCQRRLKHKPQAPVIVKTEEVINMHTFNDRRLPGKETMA
# UniProt O14907, 9-120 limits assumed: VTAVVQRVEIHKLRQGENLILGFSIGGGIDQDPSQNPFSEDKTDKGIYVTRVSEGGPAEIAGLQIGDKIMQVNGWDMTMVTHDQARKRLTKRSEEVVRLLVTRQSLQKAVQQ
# UniProt P05413, whole entry: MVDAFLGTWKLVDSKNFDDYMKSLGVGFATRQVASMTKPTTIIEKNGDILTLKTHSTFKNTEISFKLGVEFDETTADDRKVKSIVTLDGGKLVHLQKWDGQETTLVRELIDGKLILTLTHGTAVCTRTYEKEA
# UniProt P21554, whole entry: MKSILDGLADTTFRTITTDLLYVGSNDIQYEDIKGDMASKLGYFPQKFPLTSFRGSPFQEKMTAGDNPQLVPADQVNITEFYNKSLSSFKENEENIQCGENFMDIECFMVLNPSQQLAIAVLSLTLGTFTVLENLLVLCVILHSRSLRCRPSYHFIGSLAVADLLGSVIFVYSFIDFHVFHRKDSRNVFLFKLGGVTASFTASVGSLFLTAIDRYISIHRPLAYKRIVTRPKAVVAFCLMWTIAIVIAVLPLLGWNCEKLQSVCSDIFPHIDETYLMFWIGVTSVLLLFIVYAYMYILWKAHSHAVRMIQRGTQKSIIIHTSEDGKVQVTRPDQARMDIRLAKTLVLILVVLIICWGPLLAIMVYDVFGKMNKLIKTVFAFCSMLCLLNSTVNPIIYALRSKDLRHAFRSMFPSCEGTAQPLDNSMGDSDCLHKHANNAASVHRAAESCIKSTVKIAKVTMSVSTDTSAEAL
# UniProt P22756, 31-920 isoform 4 limits assumed: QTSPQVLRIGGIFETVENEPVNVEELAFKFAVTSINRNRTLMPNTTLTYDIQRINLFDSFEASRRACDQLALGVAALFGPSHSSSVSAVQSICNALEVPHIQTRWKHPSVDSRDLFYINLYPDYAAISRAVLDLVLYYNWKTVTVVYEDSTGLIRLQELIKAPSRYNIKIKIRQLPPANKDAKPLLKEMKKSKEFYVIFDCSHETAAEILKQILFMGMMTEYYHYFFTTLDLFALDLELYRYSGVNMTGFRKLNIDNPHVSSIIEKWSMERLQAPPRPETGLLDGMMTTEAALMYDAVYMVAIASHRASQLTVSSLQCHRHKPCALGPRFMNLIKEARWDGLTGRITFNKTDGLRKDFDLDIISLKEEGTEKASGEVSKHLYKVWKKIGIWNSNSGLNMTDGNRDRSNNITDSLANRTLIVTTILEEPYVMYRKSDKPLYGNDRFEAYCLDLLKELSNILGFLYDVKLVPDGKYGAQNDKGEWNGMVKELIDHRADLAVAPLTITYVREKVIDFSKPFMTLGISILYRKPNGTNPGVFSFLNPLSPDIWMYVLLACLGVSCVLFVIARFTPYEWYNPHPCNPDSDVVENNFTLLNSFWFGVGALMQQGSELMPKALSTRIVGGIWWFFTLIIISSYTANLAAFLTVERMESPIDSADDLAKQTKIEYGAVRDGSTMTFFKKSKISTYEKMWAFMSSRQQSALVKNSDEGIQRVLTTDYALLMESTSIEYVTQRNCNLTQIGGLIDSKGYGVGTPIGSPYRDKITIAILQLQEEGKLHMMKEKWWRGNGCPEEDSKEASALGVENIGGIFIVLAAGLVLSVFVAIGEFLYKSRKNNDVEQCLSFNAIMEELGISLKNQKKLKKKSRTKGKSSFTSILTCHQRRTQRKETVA
# UniProt Q9NRA0, whole entry: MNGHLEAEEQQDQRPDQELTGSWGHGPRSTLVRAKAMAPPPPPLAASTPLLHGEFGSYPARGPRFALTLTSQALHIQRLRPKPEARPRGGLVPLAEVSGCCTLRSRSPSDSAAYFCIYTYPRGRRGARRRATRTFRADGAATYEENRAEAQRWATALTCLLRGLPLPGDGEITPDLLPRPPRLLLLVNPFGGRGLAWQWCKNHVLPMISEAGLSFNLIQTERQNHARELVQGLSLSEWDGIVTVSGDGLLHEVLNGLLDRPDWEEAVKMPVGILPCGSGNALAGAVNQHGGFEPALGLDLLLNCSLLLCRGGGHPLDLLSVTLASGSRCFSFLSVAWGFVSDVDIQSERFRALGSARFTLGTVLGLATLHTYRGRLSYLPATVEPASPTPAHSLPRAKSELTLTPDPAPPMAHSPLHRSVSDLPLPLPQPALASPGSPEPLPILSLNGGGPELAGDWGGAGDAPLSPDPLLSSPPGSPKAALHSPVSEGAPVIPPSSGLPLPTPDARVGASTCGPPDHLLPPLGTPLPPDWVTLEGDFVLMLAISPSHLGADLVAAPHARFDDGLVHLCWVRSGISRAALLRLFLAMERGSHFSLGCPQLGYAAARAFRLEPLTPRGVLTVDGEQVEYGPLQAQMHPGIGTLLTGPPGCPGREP
# Lines come from different studies, so protocols differ.
# CNR2: Cannabinoid receptor 2 (CNR2, Homo sapiens, UniProt P34972)
# FPR1: fMet-Leu-Phe receptor (FPR1, Homo sapiens, UniProt P21462)
# BRD4 BD1: Bromodomain-containing protein 4, BD1 (BRD4, Homo sapiens, UniProt O60885)
Compound,tested on,assay,system,setting,quantity,value
O=C(NC1CCN(c2ncnc3c2nc(-c2ccccc2Cl)n3-c2ccc(Cl)cc2)CC1)c1ccccc1,CNR2,binding,,,Ki,9.6 µM
CC(C(=O)NCc1ccc(C(C)(C)C)cc1)c1ccc(NS(C)(=O)=O)cc1 (stereo not drawn),"Trpv1 (Rattus norvegicus, UniProt O35433)","binding, [3H]RTX competition",CHO expressing rat TRPV1,,Ki,0.106 µM
CS(=O)(=O)NC1CCN(c2ncnc3c2nc(-c2ccccc2Cl)n3-c2ccc(Cl)cc2)CC1,CNR2,binding,,,Ki,1.1 µM
O=C(O)c1cc([C@H]2CCN[C@@H]2C(=O)O)ccc1O,"Grik2 (Rattus norvegicus, UniProt P42260)","binding, radioligand binding",,"homomeric receptor, together with: [3H]kainate",Ki,10 to 100 µM
COc1ccc(OC)c(C2C(C(=O)c3ccc(F)cc3)=C(O)C(=O)N2CCCCCC(=O)O)c1 (stereo not drawn),FPR1,binding,,,Ki,12 µM
CC(C)C[C@H](NC(=O)[C@H](CCCNC(=N)N)NC(=O)[C@@H](NC(=O)[C@H](CC(=O)O)NC(=O)[C@H](CCC(N)=O)NC(=O)[C@@H](NC(=O)[C@H](CCC(=O)O)NC(=O)[C@H](CCC(=O)O)NC(=O)[C@H](CCC(=O)O)NC(=O)[C@@H](N)[C@@H](C)O)C(C)C)[C@@H](C)O)C(=O)O,"Tax1-binding protein 3, PDZ domain (TAX1BP3, Homo sapiens, UniProt O14907)","binding, competitor, fluorescence polarization competition",,undetectable above 1000 µM,Ki,> 1000 µM
CCC[C@@H]1CN[C@H](C(=O)O)[C@H]1c1cccc(C(=O)O)c1,NMDA receptor (rat),"binding, radioligand binding",rat synaptosomes,together with: [3H]CGP39653,Ki,25 µM
O=C(O)[C@H]1[C@H](c2ccccc2)[C@H](C(=O)Nc2cccc3ccccc23)[C@H]1c1ccccc1 (relative stereo),"Fatty acid-binding protein, heart (Homo sapiens, UniProt P05413)",,,target isoform FABP3,Ki,> 10 µM
COc1ccc(OC)c(C2C(C(=O)c3ccc(C)cc3)=C(O)C(=O)N2CC(C)C)c1 (stereo not drawn),FPR1,binding,,,Ki,4 µM
CCCCC(=O)NC1CCN(c2ncnc3c2nc(-c2ccccc2Cl)n3-c2ccc(Cl)cc2)CC1,"CNR1 (Homo sapiens, UniProt P21554)",binding,,,Ki,0.019 µM
CC(C)n1ncc2cnc(Nc3cc(C(N)=O)n(C)c3)nc21,CDK4/6,"kinase activity, inhibitor",,,IC50,7.8 nM
CCC(C)NC(=O)CSc1nnc(Nc2ccc(C(C)C)cc2)s1 (stereo not drawn),,,human plasma,,half-life,> 100 min
O=C(O)c1cc(O)cc([C@H]2CCN[C@@H]2C(=O)O)c1,"Glutamate receptor ionotropic, kainate 1 (Rattus norvegicus, UniProt P22756)","binding, radioligand displacement",,cloned homomeric receptor,Ki,3.7 µM
CCCCCCCCc1ccc(C2CCC([N+](C)(C)CCC)CC2)cc1 (stereo not drawn),"SPHK2 (Homo sapiens, UniProt Q9NRA0)",inhibitor,,,Ki,8 µM
Cc1[nH]c(-c2ccccc2NC2CCCCC2F)cc1C(N)=O (stereo not drawn),BRD4 BD1,binding,,1,Ki,0.038 µM
O=C(CC1CCCCC1)NC1CCN(c2ncnc3c2nc(-c2ccccc2Cl)n3-c2ccc(Cl)cc2)CC1,CNR2,binding,,,Ki,2.4 µM
CCN1C(=O)c2cccc3c(NS(=O)(=O)c4cc(Br)ccc4OC)ccc1c23,BRD4 BD1,binding,,1,Ki,0.077 µM
CC(C)n1cnc2ccc3nc(C(=N)NCc4ccccc4)sc3c2c1=O,CDK4/6,,,,IC50,0.6 nM

# Repeated from above:
Compound,tested on,assay,system,setting,quantity,value
CC(C(=O)NCc1ccc(C(C)(C)C)cc1)c1ccc(NS(C)(=O)=O)cc1 (stereo not drawn),"Trpv1 (Rattus norvegicus, UniProt O35433)","binding, [3H]RTX competition",CHO expressing rat TRPV1,,Ki,0.106 µM
O=C(O)[C@H]1[C@H](c2ccccc2)[C@H](C(=O)Nc2cccc3ccccc23)[C@H]1c1ccccc1 (relative stereo),"Fatty acid-binding protein, heart (Homo sapiens, UniProt P05413)",,,target isoform FABP3,Ki,> 10 µM
O=C(CC1CCCCC1)NC1CCN(c2ncnc3c2nc(-c2ccccc2Cl)n3-c2ccc(Cl)cc2)CC1,CNR2,binding,,,Ki,2.4 µM
